Measurements from different studies.
Numbered parts are unrelated; each lists some results of a single study.

Block 1 — technique: protein binding microarray; molecule type: double-stranded DNA, one strand shown; medium: in vitro; tested at: not given; baseline: not given; direction: higher = stronger binding; measurement: E-score
Target: Histone acetyltransferase KAT6A, both winged helices, GST fusion (KAT6A, Homo sapiens, UniProt Q92794, residues 1-181)
Notes: 8-mer, flanks averaged, mean of 2 arrays, mostly near background
Construct (chain): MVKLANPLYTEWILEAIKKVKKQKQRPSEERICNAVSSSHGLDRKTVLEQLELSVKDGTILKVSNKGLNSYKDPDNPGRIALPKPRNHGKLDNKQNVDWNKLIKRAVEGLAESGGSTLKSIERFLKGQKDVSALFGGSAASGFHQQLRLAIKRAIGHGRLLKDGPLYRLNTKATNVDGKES
CAGGCTCA: -0.159
AACGAAAT: -0.0351
CGATTGCG: 0.264
CCAGTTAC: -0.197
GGCCGAAA: 0.158
AAGAGGCG: 0.0705
GAGATTGA: -0.124

Block 2 — technique: protein-binding microarray; molecule type: double-stranded DNA, one strand shown; medium: in vitro; tested at: 250 nM; notes: 60-bp whole probe; with: salmon DNA 0.4 mg/ml; baseline: random background probes; direction: higher = stronger binding; measurement: log fluorescence; constant ends, left off below: GCCTAGCAC … GTCTTGATTCGCTTGACGCTGCTG
Target: Interferon regulatory factor 7, full length, phosphomimetic (IRF7, Homo sapiens, UniProt Q92985, residues 1-503, S101K/S471D/S472D/S475D/S476D/S477D/S483D/S484D/S487D)
Sequence of UniProt Q92985 (whole entry, unmodified, looked up): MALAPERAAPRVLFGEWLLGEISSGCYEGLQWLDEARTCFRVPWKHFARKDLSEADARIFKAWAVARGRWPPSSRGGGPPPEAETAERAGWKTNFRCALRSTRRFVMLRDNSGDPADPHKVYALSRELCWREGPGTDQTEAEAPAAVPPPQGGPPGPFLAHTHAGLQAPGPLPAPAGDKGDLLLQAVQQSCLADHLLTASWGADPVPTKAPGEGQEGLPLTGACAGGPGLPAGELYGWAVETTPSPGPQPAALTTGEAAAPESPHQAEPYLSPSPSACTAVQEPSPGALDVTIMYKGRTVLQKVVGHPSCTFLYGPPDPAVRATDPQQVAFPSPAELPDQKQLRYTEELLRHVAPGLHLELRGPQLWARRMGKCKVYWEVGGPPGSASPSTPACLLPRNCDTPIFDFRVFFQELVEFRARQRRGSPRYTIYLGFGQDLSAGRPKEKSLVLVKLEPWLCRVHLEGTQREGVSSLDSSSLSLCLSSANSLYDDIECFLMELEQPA
TTAGGTATCTTTCTCCTTTAGTGCTAG: 0.716 z-score
GACGGACGGGGTCTCGGGACGTGCTAG: -0.489 z-score
GACGACTTCGGGTTTCGAGACGTGCTA: 2.27 z-score
TTGAACTTCGGCCTCTAGGTGTGCTAG: -0.711 z-score
TCACTTTTTAAGATCTGACTGTGCTAG: 0.87 z-score

Block 3 — technique: aptamer microarray, sandwich; molecule type: DNA with 2'F-ANA; medium: in vitro; tested at: 200 nM; with: Cy3 exosite-II aptamer, 400 nM; direction: higher = stronger binding; measurement: mean fluorescence intensity; strand: GGTTGGTGTGGTTGG
Target: Prothrombin, mature alpha-thrombin (F2, Homo sapiens, UniProt P00734)
Notes: whole 15-mer aptamer, many near background
2'F-ANA at 1 2 4 7 11 14: 50.1 a.u.
2'F-ANA at 2 3 5 7 8 10: 60.2 a.u.
2'F-ANA at 2 3 6 7 8 9 10 12: 351 a.u.
2'F-ANA at 1 4 5 6 7 10 11 12 15: 53.9 a.u.
2'F-ANA at 3 4 6 9 13 14: 216 a.u.
2'F-ANA at 1 3 5 7 8 10 12 13: 49.1 a.u.
2'F-ANA at 1 2 3 4 6 7 8 9 12 13: 227 a.u.
2'F-ANA at 1 2 8 10 11 12 13: 59.4 a.u.
2'F-ANA at 2 3 4 7 8 9 10 11 14 15: 168 a.u.

Mixed results
PhoQ, residues 284 288 289 292 302 303 NLCILV — fold induction (PhoP, residues 12 14 15 18 19 LHHVQ (Escherichia coli, UniProt P23836); Sort-seq, measured: YFP reporter; E. coli; PhoQ-PhoP variant library, with: 10 µM Mg2+; baseline: high Mg2+ state, higher = stronger signaling): 7.35

A few entries again (block 3):
2'F-ANA at 1 2 4 7 11 14: 50.1 a.u.
2'F-ANA at 2 3 5 7 8 10: 60.2 a.u.
2'F-ANA at 2 3 6 7 8 9 10 12: 351 a.u.
